Results pooled from the literature.
A part holds a random share of what one study measured. Changes are numbered by the printed parent chain.

Sample 1 — target: CCND3, cyclin fold, Cln2 fusion (human); technique: yeast growth competition, sequencing; matrix: yeast; notes: weak parent motif; baseline: not given; direction: higher = stronger binding; quantity: normalised enrichment score
Starting sequence: PKMYT1 docking peptide (human); SFEPRNLLSLFED
N6V: 0.1
S1E: 0.0116
D13A: 0.115
R5M: 0.107
R5G: 0.154
E3W: 0.0879
F2D: 0.1
S1N: 0.0537
L7C: 0.121
E12T: 0.0339
S9T: 0.0908
P4W: 0.0889
L8S: 0.0752
N6A: 0.0682
F11Y: 0.097
P4T: 0.115
D13S: 0.132
D13G: 0.0253

Sample 2 — technique: protein binding microarray; form: double-stranded DNA, one strand shown; matrix: in vitro; tested at: not given; baseline: not given; direction: higher = stronger binding; quantity: E-score
Target: Histone acetyltransferase KAT6A, winged helix 2, GST fusion (KAT6A, Homo sapiens, UniProt Q92794, residues 85-181)
Notes: 8-mer, flanks averaged, mean of 2 arrays, mostly near background
Target sequence (chain): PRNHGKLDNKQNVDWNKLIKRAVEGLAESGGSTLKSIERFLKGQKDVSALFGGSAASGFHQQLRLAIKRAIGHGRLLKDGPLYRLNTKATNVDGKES
GATGGCAC: -0.125
ATAGTGTA: -0.0956
TACAACAA: -0.0775
ACTTCAAG: -0.132
CACTTTGC: 0.0566
GACTCTCA: -0.181
CACTCTAC: -0.0545
GTCCGTGA: -0.0114
CAAGTAAG: -0.0542
ATGGTTAA: -0.113
CAACCTCA: -0.176
CCCCACTC: -0.081
CCTAACCA: 0.023
GGACGACC: -0.00591
CGGCATAC: 0.105
AATGATGC: 0.0946
GCAATTGC: 0.138
AATGATCG: -0.16
GCAGCTCA: -0.0465
GCCCACAA: 0.195
GCGCTACA: 0.0304
CCTCTTAG: 0.169
GGGGAAAC: 0.211
ATCCTCAC: 0.0109
AGCTTTGA: 0.0745

Sample 3 — technique: protein-binding microarray; form: double-stranded DNA, one strand shown; matrix: in vitro; tested at: 250 nM; notes: 60-bp whole probe; with: salmon DNA 0.4 mg/ml; baseline: random background probes; direction: higher = stronger binding; quantity: log fluorescence; all sequences stand within: GCCTAGCAC … GTCTTGATTCGCTTGACGCTGCTG
Target: Interferon regulatory factor 5, full length, phosphomimetic (IRF5, Homo sapiens, UniProt Q13568-2, residues 1-514, K96S/S451D/S453D/S456D/S462D)
CAGTAGATGGCGCCTGAGAGGTGCTAG: -0.541 z-score
GACGGTATCGGGTACCGGGACGTGCTA: 2.85 z-score
TCATTTTTTTAATTGAAACTGTGCTAG: 1.31 z-score
GATGATCTCAGACTGGAGACGTGCTAG: -0.29 z-score
TCCATGACCTACCCTGCGTTGTGCTAG: -0.401 z-score
TTAGGTTTCCGGACTGGGTTAGTGCTA: 0.288 z-score
TTAGGTTTCGGTTTGGGTTAGTGCTAG: 10.5 z-score
GGCGGACTGCTTATCCTGACGTGCTAG: -0.71 z-score
TCAAAAGTGTTTCTCAAACTGTGCTAG: 0.41 z-score
GAAGGTTTCGGTTCCGGGACGTGCTAG: 9.36 z-score
TTAAAACTGAGACTGGATTAGTGCTAG: -0.126 z-score
GACGATATCGGGTTTCGAGAAGTGCTA: 4.08 z-score
CTCCCTTTCTCTCTGTGACAGTGCTAG: 1.64 z-score
GACGGACTGCTTTTCCTGGCGTGCTAG: -0.292 z-score
TTAGGTATCCTTATACTTTAGTGCTAG: 0.271 z-score
GACGATCTAAGTATCGAGACGTGCTAG: 1.8 z-score
GAGATCATCCGTTTCTTCTAGTGCTAG: 0.236 z-score
TTAGATCTCAGTAGCGATTAGTGCTAG: 0.37 z-score
TTAGAACGGAGTATCGATTAGTGCTAG: 5.7 z-score

Sample 4 — technique: DHFR PCA, dose-response; matrix: yeast; with: (+)-ABA, dose series; direction: lower = more sensitive; quantity: ABA EC50
Target: ABI1, truncated, D143A, DHFR fusion (Arabidopsis thaliana, UniProt P49597)
Notes: Hill fit, not affinity, not high confidence
Starting sequence: PYL1, truncated, DHFR fusion (Arabidopsis thaliana, UniProt Q8VZS8); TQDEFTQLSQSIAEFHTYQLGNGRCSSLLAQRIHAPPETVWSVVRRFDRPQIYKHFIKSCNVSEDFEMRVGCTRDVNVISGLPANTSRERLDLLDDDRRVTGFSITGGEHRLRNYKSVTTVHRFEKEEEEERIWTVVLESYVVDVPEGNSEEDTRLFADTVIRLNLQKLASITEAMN
Q51Y: 25.7 µM
E89W: 2.06 µM
S140M: 226 µM
A84F: 2.15 µM
A84L: 0.512 µM
N149I: 246 µM
V44N: 20.4 µM
F15P: 237 µM
P83K: 0.311 µM
Y141S: 0.228 µM
C60P: 350 µM
Y115K: 0.0619 µM
V40M: 490 µM
G148I: 139 µM

Further values, each from its own experiment — technique: EMSA with sequencing; form: double-stranded DNA, one strand shown; matrix: in vitro; tested at: 10 and 20 nM; baseline: negative control set to 0; direction: higher = stronger binding
Target: Hepatocyte nuclear factor 3-alpha (Foxa1, Mus musculus, UniProt P35582, residues 1-468, full length assumed)
Notes: whole designed probe, mean of two concentrations, ends assumed
One construct used (chain): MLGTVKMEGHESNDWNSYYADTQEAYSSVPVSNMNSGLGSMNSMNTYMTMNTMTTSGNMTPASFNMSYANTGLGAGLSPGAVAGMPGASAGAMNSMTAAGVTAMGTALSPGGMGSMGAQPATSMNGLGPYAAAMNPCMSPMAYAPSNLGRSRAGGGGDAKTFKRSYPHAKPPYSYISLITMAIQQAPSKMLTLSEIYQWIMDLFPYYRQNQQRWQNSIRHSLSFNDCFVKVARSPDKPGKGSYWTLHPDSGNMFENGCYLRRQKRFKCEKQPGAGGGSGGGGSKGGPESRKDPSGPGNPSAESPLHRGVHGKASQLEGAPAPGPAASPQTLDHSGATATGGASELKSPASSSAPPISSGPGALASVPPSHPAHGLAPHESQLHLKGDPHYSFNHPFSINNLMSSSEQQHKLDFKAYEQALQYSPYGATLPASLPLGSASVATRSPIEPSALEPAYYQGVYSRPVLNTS
GTGAGCGGTGCCCATTGATGGGGAACGAGCTCTTCCTTTCCCTTACTTCCTTCTCAGGTTGTAGAATACAAGCTCAGCACTTTCCTGGCTTCCCTCTATTGCTCTGGGAAAGATAGTAAGTAAATAGTGTCTGTTGCCAAAGGGAGAAGAATAAACATAGGCTGGATCACCAAATGGTGCTGCATTTTATTTGTATGGTGTCAGAGACACTGGCTGCTTTTTCACTGGGATCGTGGGGAC
normalised bound fraction: 0.435 ratio

GTGAGCGGTGCCCATTGATGGGGAACATCTTCCCCCTTTTTTTTTCCCCACCAGCTCACCTTCCCGGGTTATTTGCAGATAGGAAAATAAATAAAGCCGGCATTCGTTAACCCTCTTCTGGCGCAAACTGCTGTTTGCTCTGGATGAATCATGGTCCTTTGGCGACGCCAGGCTCCGGGAGAGCAAAGCACCGTGTCAGGGCCATGATCCGGGGTGGCCTTTCACTGGGATCGTGGGGAC
normalised bound fraction: 0.321 ratio
